# Assay results of several laboratories.
# Numbers after ± are the reported error.
# Sequence of UniProt Q96Q15 (whole entry, looked up): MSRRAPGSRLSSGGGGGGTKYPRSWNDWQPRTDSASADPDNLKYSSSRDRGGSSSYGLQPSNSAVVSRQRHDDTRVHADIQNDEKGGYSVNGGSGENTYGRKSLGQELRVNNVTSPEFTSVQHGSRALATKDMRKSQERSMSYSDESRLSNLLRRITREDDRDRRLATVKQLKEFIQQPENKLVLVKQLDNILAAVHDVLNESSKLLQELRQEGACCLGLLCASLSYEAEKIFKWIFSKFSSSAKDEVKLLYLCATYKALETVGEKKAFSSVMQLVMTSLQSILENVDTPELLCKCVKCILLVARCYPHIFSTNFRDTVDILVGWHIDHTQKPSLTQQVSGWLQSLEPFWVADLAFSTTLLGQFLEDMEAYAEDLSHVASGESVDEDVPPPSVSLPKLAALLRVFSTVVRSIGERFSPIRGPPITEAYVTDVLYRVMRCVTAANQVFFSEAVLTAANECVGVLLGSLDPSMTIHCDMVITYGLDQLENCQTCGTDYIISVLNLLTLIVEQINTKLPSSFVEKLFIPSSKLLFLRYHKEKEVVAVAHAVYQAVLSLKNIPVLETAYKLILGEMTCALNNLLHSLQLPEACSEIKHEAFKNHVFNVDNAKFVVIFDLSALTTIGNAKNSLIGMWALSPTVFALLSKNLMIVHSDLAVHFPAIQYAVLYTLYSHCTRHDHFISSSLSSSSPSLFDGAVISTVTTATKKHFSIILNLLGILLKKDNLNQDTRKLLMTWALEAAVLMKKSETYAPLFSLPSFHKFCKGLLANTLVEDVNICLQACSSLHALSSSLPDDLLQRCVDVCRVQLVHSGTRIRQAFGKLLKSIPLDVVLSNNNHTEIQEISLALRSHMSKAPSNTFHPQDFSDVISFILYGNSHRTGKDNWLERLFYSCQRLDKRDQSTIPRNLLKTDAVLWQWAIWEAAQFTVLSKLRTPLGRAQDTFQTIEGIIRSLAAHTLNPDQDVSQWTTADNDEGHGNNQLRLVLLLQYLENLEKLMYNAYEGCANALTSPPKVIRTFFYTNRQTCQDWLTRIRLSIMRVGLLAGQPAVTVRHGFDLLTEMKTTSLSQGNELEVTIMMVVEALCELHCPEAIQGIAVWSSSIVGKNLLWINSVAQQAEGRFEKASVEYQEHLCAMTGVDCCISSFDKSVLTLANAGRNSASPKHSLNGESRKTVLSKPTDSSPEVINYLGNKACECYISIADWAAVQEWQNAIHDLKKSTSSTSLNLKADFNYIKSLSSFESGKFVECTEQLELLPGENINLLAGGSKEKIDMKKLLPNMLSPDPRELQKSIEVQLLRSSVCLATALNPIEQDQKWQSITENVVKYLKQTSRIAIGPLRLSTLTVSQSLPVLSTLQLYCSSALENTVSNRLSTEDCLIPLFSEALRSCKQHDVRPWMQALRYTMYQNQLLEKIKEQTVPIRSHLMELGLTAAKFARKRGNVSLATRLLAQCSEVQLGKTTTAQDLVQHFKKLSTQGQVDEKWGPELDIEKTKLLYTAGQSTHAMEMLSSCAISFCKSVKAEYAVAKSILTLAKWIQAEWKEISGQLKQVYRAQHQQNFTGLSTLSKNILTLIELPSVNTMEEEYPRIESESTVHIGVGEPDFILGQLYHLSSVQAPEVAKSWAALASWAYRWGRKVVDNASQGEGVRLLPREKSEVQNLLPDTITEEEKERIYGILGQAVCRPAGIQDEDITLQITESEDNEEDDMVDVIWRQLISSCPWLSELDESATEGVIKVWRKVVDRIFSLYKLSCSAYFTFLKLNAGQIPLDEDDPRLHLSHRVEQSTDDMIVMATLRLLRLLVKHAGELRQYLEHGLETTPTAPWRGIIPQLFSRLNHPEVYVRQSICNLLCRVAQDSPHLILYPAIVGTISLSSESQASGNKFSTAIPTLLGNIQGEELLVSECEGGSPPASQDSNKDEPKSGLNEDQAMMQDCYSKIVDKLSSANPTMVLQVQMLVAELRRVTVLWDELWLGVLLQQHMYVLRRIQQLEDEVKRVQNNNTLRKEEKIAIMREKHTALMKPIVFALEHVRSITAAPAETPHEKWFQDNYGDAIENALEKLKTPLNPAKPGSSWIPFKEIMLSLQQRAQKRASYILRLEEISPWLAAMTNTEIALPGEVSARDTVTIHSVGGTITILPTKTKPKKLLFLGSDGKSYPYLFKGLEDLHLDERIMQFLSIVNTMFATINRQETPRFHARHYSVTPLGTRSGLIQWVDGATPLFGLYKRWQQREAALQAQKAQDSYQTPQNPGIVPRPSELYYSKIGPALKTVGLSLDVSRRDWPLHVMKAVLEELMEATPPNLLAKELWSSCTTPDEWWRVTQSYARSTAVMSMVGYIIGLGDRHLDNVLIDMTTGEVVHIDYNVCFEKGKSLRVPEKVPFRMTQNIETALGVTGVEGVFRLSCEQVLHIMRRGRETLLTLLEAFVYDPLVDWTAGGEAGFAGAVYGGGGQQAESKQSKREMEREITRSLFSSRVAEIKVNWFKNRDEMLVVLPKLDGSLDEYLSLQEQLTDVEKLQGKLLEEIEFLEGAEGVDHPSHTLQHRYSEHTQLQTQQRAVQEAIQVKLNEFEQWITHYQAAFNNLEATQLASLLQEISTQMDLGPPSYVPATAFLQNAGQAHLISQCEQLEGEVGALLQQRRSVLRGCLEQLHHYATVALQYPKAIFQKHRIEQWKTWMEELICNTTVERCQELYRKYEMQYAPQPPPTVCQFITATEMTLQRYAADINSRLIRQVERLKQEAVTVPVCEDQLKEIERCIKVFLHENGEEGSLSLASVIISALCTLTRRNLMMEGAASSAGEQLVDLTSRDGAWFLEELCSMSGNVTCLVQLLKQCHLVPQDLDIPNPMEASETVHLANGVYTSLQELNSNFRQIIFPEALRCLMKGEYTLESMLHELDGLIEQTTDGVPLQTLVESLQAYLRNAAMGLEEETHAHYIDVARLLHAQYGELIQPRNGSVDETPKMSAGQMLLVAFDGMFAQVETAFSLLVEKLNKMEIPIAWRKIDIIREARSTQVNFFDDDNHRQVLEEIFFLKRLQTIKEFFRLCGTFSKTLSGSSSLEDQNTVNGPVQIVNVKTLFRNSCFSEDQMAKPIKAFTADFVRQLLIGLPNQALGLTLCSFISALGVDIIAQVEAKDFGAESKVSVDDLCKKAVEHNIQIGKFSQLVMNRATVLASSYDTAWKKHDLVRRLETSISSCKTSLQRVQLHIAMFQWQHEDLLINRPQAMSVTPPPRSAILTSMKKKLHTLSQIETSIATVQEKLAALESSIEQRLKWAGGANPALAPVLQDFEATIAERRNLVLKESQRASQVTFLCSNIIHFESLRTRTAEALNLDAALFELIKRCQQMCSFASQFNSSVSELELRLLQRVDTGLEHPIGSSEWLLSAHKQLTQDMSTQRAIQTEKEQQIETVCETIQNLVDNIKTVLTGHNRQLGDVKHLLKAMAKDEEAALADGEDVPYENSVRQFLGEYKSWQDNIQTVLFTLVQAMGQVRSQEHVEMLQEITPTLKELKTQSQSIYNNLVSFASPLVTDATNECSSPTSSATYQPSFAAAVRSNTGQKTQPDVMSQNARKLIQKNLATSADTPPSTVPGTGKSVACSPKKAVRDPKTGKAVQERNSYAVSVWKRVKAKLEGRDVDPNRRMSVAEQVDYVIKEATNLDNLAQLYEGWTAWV
Structure (SMILES),target or system,test,test system,setting,how to read,quantity,value
CC[C@H](C)[C@H](NC(=O)[C@H](CCCNC(=N)N)NC(=O)[C@H](CCCCN)NC(=O)[C@H](Cc1ccc(O)cc1)NC(=O)[C@H](CC(=O)O)NC(=O)[C@H](C)NC(=O)CNC(=O)CCOCCOCCOCCNC(=O)CN1CCN(CC(=O)O)CCN(CC(=O)O)CCN(CC(=O)O)CC1)C(=O)N[C@H](C(=O)N[C@H](C(=O)N[C@@H](CCCCN)C(=O)N[C@H](C(=O)N[C@@H](CC(N)=O)C(N)=O)C(C)C)C(C)C)[C@@H](C)O [copper-64 labelled],,ex vivo gamma counting,"C57BL/6J male mice, B16-F10 tumour, heart","intravenous, 1.85 MBq, 40 min",,tissue uptake,0.795 ± 0.016 %ID/g
CN(C)[C@H]1C[C@@]23CC[C@@]4(O2)C(=CC[C@]2(C)[C@@H](c5ccc6ccncc6c5)CC[C@H]24)C=C3[C@@H](O)[C@@H]1O,"SMG1 (Homo sapiens, UniProt Q96Q15)","ATP probe labelling, inhibitor, KiNativ profiling",,0.1 µM,,inhibition,-0.9%
CSCC[C@H](NC(=O)CNC(=O)[C@H](CCCCN)NC(=O)[C@H](CC(C)C)NC(=O)[C@@H]1CCCN1C(=O)[C@H](CO)NC(=O)[C@H](Cc1c[nH]cn1)NC(=O)[C@H](Cc1c[nH]c2ccccc12)NC(=O)[C@H](CCCNC(=N)N)NC(=O)[C@H](CC(C)C)NC(=O)[C@H](CCCNC(=N)N)NC(=O)[C@H](Cc1c[nH]c2ccccc12)NC(=O)[C@H](CS)NC(=O)CCCCCNC(=O)CN1CCN(CC(=O)O)CCN(CC(=O)O)CCN(CC(=O)O)CC1)C(=O)O [copper-64 labelled],,PET,"C57BL/6J mice, B16-F10 tumour, liver","intravenous, 25 h",,tissue uptake,6.78 ± 0.36 %ID/g
CC(C)(C)C(=O)OCOP(=O)(OCOC(=O)C(C)(C)C)C1CCCN(O)C1=O (stereo not drawn),NCI-H322M,,,,,log TGI,-5.07 log M
CC[C@H](C)[C@H](NC(=O)[C@H](CCCNC(=N)N)NC(=O)[C@H](CCCCN)NC(=O)[C@H](Cc1ccc(O)cc1)NC(=O)[C@H](CC(=O)O)NC(=O)[C@H](C)NC(=O)CNC(=O)CCOCCOCCOCCNC(=O)CN1CCN(CC(=O)O)CCN(CC(=O)O)CCN(CC(=O)O)CC1)C(=O)N[C@H](C(=O)N[C@@H](CC(C)C)C(=O)N[C@@H](CCCCN)C(=O)N[C@H](C(=O)N[C@@H](CC(N)=O)C(N)=O)C(C)C)[C@@H](C)O [copper-64 labelled],,ex vivo gamma counting,"C57BL/6J male mice, B16-F10 tumour, blood","intravenous, 1.85 MBq, 100 min",,tissue uptake,0.32 ± 0.081 %ID/g
C[C@H](O)[C@@H](NC(=O)[C@H]1CCCN1C(=O)[C@@H](CCCCN)NC(=O)[C@@H](CO)NC(=O)[C@@H](Cc1ccc(O)cc1)NC(=O)[C@@H](CC(N)=O)NC(=O)CCOCCOCCOCCNC(=O)CN1CCN(CC(=O)O)CCN(CC(=O)O)CCN(CC(=O)O)CC1)C(=O)N[C@H](CC(=O)O)C(=O)N[C@H](CCCNC(=N)N)C(=O)N[C@H](CCC(N)=O)C(=O)N[C@H](Cc1ccc(O)cc1)C(=O)N[C@H](Cc1c[nH]cn1)C(=O)N[C@H](Cc1ccccc1)C(N)=O [gallium-68 labelled],,,"BALB/c nude mice U-87 MG tumour, stomach","intravenous, 1.85 MBq, 1 h, radiolabelled",,tissue uptake,0.08 ± 0.01 %ID/g
CN1Cc2cc(Cl)ccc2-n2c(nnc2C2CCN(c3cccc([18F])n3)CC2)C1,,,"C57BL/6 mouse male, heart","intravenous, dose not given, 30 min, with: blocking agent 10 mg/kg",,tissue uptake,5.29 ± 1.52 %ID/g
CC(C)C[C@@H](NC(=O)[C@@H](CCCNC(=N)N)NC(=O)[C@@H](Cc1c[nH]cn1)NC(=O)[C@@H](Cc1c[nH]c2ccccc12)NC(=O)[C@@H](Cc1c[nH]cn1)NC(=O)[C@@H](Cc1ccccc1)NC(=O)[C@H](NC(=O)[C@@H](Cc1ccc(O)cc1)NC(=O)CNC(=O)CNC(=O)CCOCCOCCOCCNC(=O)CN1CCN(CC(=O)O)CCN(CC(=O)O)CC1)[C@H](C)O)C(=O)N[C@H](CC(N)=O)C(=O)N1CCC[C@@H]1C(=O)O [gallium-68 labelled],,gamma counting,"C57BL/6 mice, male, stomach","intravenous, 1.85 MBq, 60 min",,tissue uptake,1.07 ± 0.3 %ID/g
CCCC[C@H]1C(=O)N(C)[C@@H](CCCC)C(=O)N[C@@H](CCCNC(=O)CN2CCN(CC(=O)O)CCN(CC(=O)O)CCN(CC(=O)O)CC2)C(=O)N[C@H](C(=O)NCC(N)=O)CSCC(=O)N[C@@H](Cc2ccc(O)cc2)C(=O)N(C)[C@@H](C)C(=O)N[C@@H](CC(N)=O)C(=O)N2CCC[C@H]2C(=O)N[C@@H](Cc2c[nH]cn2)C(=O)N[C@@H](CC(C)C)C(=O)N(C)CC(=O)N[C@@H](Cc2c[nH]c3ccccc23)C(=O)N[C@@H](CO)C(=O)N[C@@H](Cc2c[nH]c3ccccc23)C(=O)N1C [gallium-68 labelled],,,"NOD/SCID mice with CHO-hPD-L1 xenograft, bone",30 min post injection,,tissue uptake,1.78 ± 0.1 %ID/g
CC[C@H](C)[C@H](NC(=O)[C@H](CCCCN)NC(=O)CNC(=O)[C@H](CC(C)C)NC(=O)[C@H](Cc1ccccc1)NC(=O)[C@H](CCCCN)NC(=O)[C@H](CO)NC(=O)[C@H](Cc1ccccc1)NC(=O)[C@H](Cc1c[nH]c2ccccc12)NC(=O)[C@H](CCC(N)=O)NC(=O)[C@@H](NC(=O)[C@H](Cc1ccccc1)NC(=O)CCCCCNC(=O)CN1CCN(CC(=O)O)CCN(CC(=O)O)CCN(CC(=O)O)CC1)C(C)C)C(=O)N[C@@H](CCC(=O)O)C(=O)N1CCC[C@H]1C(=O)N[C@@H](CC(=O)O)C(=O)N[C@H](C(=O)N[C@@H](CO)C(=O)N[C@@H](CCC(N)=O)C(=O)N[C@H](C(=O)N[C@@H](CCC(N)=O)C(=O)N[C@@H](CC(=O)O)C(=O)N1CCC[C@H]1C(=O)N[C@@H](CC(N)=O)C(=O)N[C@@H](CC(=O)O)C(=O)N[C@@H](CCC(N)=O)C(=O)N[C@@H](Cc1ccc(O)cc1)C(=O)N[C@@H](CCC(=O)O)C(=O)N1CCC[C@H]1C(=O)N[C@@H](Cc1ccccc1)C(=O)O)C(C)C)C(C)C [copper-64 labelled],,,"BALB/c mice, male, CT26 tumour-bearing, bone","2 h, anti-PD1 plus anti-CTLA4 treated",,tissue uptake,0.54 ± 0.1 %ID/g
COc1ccccc1-c1n[nH]c2nc(NC3CCN(C(=O)Cc4ccc(F)cc4F)CC3)ncc12,,"bead binding, competition bead pull-down, item: LINJ.35.2790",Leishmania donovani extract,10 µM,relative to: vehicle,relative abundance,0.94
O=C1NC2(CC2)COc2ncc(F)cc2[C@H]2COCCN2c2ccn3ncc1c3n2,,,"Sprague-Dawley rat, male, serum","oral, 10 mg/kg/day, end of recovery, 4-week subacute toxicity",,serum urea,4.25 ± 0.54 mmol/L

# For quick reference, copied from above:
Structure (SMILES),target or system,test,test system,setting,how to read,quantity,value
CC(C)(C)C(=O)OCOP(=O)(OCOC(=O)C(C)(C)C)C1CCCN(O)C1=O (stereo not drawn),NCI-H322M,,,,,log TGI,-5.07 log M
